Results collected from several papers.
Every numbered part comes from another study and shows a few of its results, in no order.

Block 1
Target: Ras GTPase-activating protein-binding protein 1, full length (G3BP1, Homo sapiens, UniProt Q13283)
Sequence of UniProt Q13283 (whole entry, looked up): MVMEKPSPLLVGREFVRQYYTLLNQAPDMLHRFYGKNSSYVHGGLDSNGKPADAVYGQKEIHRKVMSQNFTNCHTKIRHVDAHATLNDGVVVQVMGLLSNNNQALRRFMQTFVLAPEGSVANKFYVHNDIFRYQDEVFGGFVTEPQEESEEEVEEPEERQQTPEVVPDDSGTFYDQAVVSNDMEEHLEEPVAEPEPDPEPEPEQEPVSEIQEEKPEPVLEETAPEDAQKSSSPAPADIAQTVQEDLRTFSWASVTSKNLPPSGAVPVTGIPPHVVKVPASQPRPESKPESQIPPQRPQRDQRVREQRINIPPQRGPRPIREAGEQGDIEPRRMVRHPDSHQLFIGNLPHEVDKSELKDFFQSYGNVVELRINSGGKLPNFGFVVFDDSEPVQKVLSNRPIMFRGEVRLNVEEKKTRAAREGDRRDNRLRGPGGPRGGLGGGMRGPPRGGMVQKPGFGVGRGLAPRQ
Method: RNA Bind-n-Seq
Form: RNA
Medium: in vitro
Tested at: 200 nM
Setting: whole 134-nt RNA, ends assumed
Added: 150 mM KCl
Reference: input library
Direction: higher = stronger binding
Quantity: log2 enrichment
All sequences stand within: GGGAGUUCUACAGUCCGACGAUC … UGGAAUUCUCGGGUGUCAAGG
CUCAAGUCCUGUGCUACACAUCGUAUGUACCGAAUCGGUGGAAAAAAAGGUGGAAAGUAUUAUGUUACGCCGUUCGGAUCUGCACUUCCA: -0.363
CACAGACAACACGCACCCACACAGACACAGAGGGAAGGGGUUGGGAUGGGGACAGGGUGCACAGCAGGGCGGGGUAGGACACCAGCCCCU: 1.81
CUCAAGUCCUGUGCUACACAUCGUAUGUACCGAAUCGGGGUUGGUUGGUUGGGAAAGUAUUAUGUUACGCCGUUCGGAUCUGCACUUCCA: 0.0779
CUCAAGUCCUGUGCUACACAUCGUAUGUACCGAAUCGGGGCGGGCGGGGCGGGAAAGUAUUAUGUUACGCCGUUCGGAUCUGCACUUCCA: 1.69
CAAGUCCUGUGCUACACAUCGUAUGUACCGAAUCGGAAAGGAAAAAAAGGAAAGGAAAGUAUUAUGUUACGCCGUUCGGAUCUGCACUUC: -0.963
CAAGUCCUGUGCUACACAUCGUAUGUACCGAAUCGGUUUUGGUUUUGGUUUUGGGAAAGUAUUAUGUUACGCCGUUCGGAUCUGCACUUC: -1.17
UGGAUAUGGUUAUAGAAGAAGUGGCCGAGAUAAAUAUGGCCCUCCUACUCGCACAGAGUACAGACUUAUUGUGGAGAAUUUGUCAAGUCG: -1.03

Block 2
Target: RNA binding protein fox-1 homolog 2, RRM domain, GST-SBP tag (RBFOX2, Homo sapiens, UniProt O43251-10, residues 100-194)
Method: RNA Bind-n-Seq
Form: RNA
Medium: in vitro
Tested at: 365 nM
Setting: natural RNA segment, single round, ends assumed
Reference: no-protein control
Direction: higher = stronger binding
Quantity: RBNS enrichment (R)
All sequences stand within: GGGAGUUCUACAGUCCGACGAUC … UGGAAUUCUCGGGUGCCAA
Target sequence (chain): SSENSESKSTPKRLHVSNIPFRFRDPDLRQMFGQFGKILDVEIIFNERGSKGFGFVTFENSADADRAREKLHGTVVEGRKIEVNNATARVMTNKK
AAGAUUUGAAAUUUGUUAAAAUGAGAAAUACCUUUGGAAGCCAUACAUAUGAAAAUCAGGAGGAAAUUAAGAAAAAAGAUGAAGAUAUUCAGAGGAGUUAUACUUUGAGG: 0.794
UGAAAGGGGUUUUUCCCUAGUCAAGCAUUUGGAGACACUUUUUGUAAAUGUGACUUUUAUGUCAGCCAUCGUCAGUUUCAACAUCUAGAACUAAAUAGAAAGCUAGUUGU: 0.38
UAAAUUGUCUUUUUAAAUUGCUAACAAGCAUCAGUUAUAUUUGAGCUUCAUUUUUCUUUUAUCCUGUCUGUCCUAAUAAAAACAAAAAUGGCCAAAAAGUGGAGAGGAAA: 1.04
CUCGAGACUCCUGUUUGUGAGGGACUCUUACAAGGAUAAGAGCAAGGCCACACCACUUCCGCUGUGUAUCAGUCUAUCAUACACUCCGCACGGUCACAUGAUCACUUCAC: 0.617
UUUUGCUGACUUCUUUAACCAUUUAUAUUGUUUAAAUUAGUAAUAUCCAAUGCAGUGCACACUUUUUUGUCUUUUUUCCAACGGAAUAUUUUGGUUGUCUGUAGCGUUGG: 0.73
GCUGUUAAAAGUUGGUAUCAGUAAGAUUUGUGUUUUGUGAUAAUCCCUAAAUCAACAUACCACUUGUAAACUGAACUUCGAGAAAGAAACAUGAUGUUCAUUCUGUAAAU: 0.356
CCUCUGUAGGAACUUAGGUUAAUAGUAAUAUUAACAACAAGACAUGCUAAGACUCUUUGGUAAUCUAGAAGAGCUUCUAGUGAGAACCUGAUGGUAGGUCGUGGGGCCUG: 0.311
AAAGUAACUUUAAGAGAUUUUUGGAAAAGCUUUAUAUACAUUCUUUUCAAAUUUCAGUACAAAUGAAAAGUGGUUUUAAUCAGUGAUUUAGUAGACUUUGAGCAACUGUG: 0.707

Block 3
Target: Histone acetyltransferase KAT6A, both winged helices, GST fusion (KAT6A, Homo sapiens, UniProt Q92794, residues 1-181)
Method: protein binding microarray
Form: double-stranded DNA, one strand shown
Medium: in vitro
Tested at: not given
Setting: 8-mer, flanks averaged, mean of 2 arrays, mostly near background
Reference: not given
Direction: higher = stronger binding
Quantity: E-score
Target sequence (chain): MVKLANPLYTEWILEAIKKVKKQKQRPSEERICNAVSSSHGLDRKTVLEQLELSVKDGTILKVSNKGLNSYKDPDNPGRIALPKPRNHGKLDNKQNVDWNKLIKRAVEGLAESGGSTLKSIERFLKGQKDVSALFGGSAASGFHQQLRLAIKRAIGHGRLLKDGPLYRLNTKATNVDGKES
AGCAACGA: -0.12
GTGGAGTA: -0.233
CTAAAATC: -0.193
GGGATCGA: -0.11
GCTAATGA: -0.0922
GTATCAAA: -0.0684
CTCATGAG: -0.0768
AATCGTAG: -0.091
AGAGCGCT: 0.273
AAGATTGT: -0.211
AGGCGGTG: 0.0457
ATTCTTCG: -0.0113
CAGCTAAG: -0.146
GTCATGCA: -0.0874
CCCTTCGC: -0.0181

Block 4
Target: Phosphate system positive regulatory protein PHO4, full length, GST-tagged (PHO4, Saccharomyces cerevisiae, UniProt P07270, residues 1-312)
Method: competition protein-binding microarray
Form: double-stranded DNA, one strand shown
Medium: in vitro
Tested at: 2 µM
Setting: whole 60-bp probe, lowest competitor level
Added: Cbf1 competitor, 0.05 µM
Direction: higher = stronger binding
Quantity: fluorescence intensity
All sequences stand within: … GTCTTGATTCGCTTGACGCTGCTG
Construct (chain): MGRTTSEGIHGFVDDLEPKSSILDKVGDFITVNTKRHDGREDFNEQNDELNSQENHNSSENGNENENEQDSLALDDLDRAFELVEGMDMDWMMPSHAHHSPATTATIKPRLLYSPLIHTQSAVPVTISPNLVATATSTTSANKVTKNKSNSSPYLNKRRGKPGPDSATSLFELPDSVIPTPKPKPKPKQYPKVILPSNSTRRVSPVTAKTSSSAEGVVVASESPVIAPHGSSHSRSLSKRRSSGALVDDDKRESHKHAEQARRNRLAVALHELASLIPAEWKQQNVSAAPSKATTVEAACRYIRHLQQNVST
AGTACTTGACTGCACCTCGTGTCGGAAGATTTTCCA: 12400 a.u.
CTTCTGTAAATTTGTCACCAAACTTGACGCGCCCCG: 3520 a.u.
CTAGCGCCATTTCACCACATGCTTGAATAATACAGT: 11200 a.u.
AGGCGGGTATTCCACCTGGTGTGTTCAACATTGTAT: 5580 a.u.
CTTCTGTAAATTTTGCACGTGTTTTGACGCGCCCCG: 17900 a.u.
CATACCCAACCTTGGCCTGTGGGTGAAGATATTTGT: 4240 a.u.
ATGGGCCACTCTTTTCACGTGAAGCGCTCCAGGAAA: 8790 a.u.
TGCGCAACAACTTTTCACGTGAACTTATGTCTAGAA: 9450 a.u.
TCAGGAATATGAAGGCAGGTGAAATGAAACCAGTCA: 3430 a.u.
TGCAGTTTTCTTTCACACGTTCGAAAGCCCCTTTGA: 8890 a.u.
CTTTCCCGATCTTGTCACCACACTTTAGCACATTTG: 5080 a.u.

Block 5
Target: Interferon regulatory factor 5, full length, phosphomimetic (IRF5, Homo sapiens, UniProt Q13568-2, residues 1-514, K96S/S451D/S453D/S456D/S462D)
Method: protein-binding microarray
Form: double-stranded DNA, one strand shown
Medium: in vitro
Tested at: 250 nM
Setting: 60-bp whole probe
Added: salmon DNA 0.4 mg/ml
Reference: random background probes
Direction: higher = stronger binding
Quantity: log fluorescence
All sequences stand within: GCCTAGCAC … GTCTTGATTCGCTTGACGCTGCTG
TAAGCAAAAATGATTGGTTGGTGCTAG: 0.211 z-score
TCATTTTTCATTGTTTTACTGTGCTAG: 1.96 z-score
TAAGAACTGAGTTTCGATTAGTGCTAG: 9.53 z-score
TTTGAACTGGGGTATCGATTAGTGCTA: 2.28 z-score
TCATTTCTATGTCTGTTACTGTGCTAG: 1.95 z-score
TTAGGTCTCGCTTTCGGTTAGTGCTAG: 8.66 z-score
TTAGATTTCAGTATCGTTTAGTGCTAG: 5.65 z-score
TCACTTCTTTTTTTTCTACTGTGCTAG: 1.5 z-score
GACGATTTCGGGTTTAGAGACGTGCTA: 3.09 z-score
TTAGTTTCCCTTTTCCTTTAGTGCTAG: 4.35 z-score
TCACTTCTGGTCTTCTGACTGTGCTAG: 0.501 z-score

Some of these lines once more (block 3):
GCTAATGA: -0.0922
GTATCAAA: -0.0684
CTCATGAG: -0.0768
AATCGTAG: -0.091
AGAGCGCT: 0.273
